{"data": "Assay results collected from several papers", "note": "Lines come from different studies, so protocols differ. ± marks the error that the study gave."}
{"Compound": "O=c1c(OCc2ccccc2)c(-c2ccc([N+](=O)[O-])cc2)oc2ccccc12", "test system": "diabetic rat", "setting": "7.5 mg/kg, p-nitrophenyl β-glucoside induced", "endpoint": "serum alkaline phosphatase", "result": "212 ± 4.8 IU"}
{"Compound": "COc1ccc(C2CC(c3ccc(C)cc3)=Nc3ccccc3S2)cc1 (stereo not shown)", "test system": "rat, normal, overnight fasted", "setting": "oral, 10 mg/kg, 30 min, oral glucose tolerance test, together with: glucose 3 g/kg oral", "endpoint": "blood glucose", "result": "120 ± 4.01 mg/dL"}
{"Compound": "O=C1CCN(Cc2ccccc2)CC1C(C[N+](=O)[O-])c1ccccc1 (stereo not shown)", "test system": "mouse acetic acid writhing", "setting": "25 mg/kg, together with: haloperidol 1 mg/kg pretreatment", "endpoint": "number of writhes", "result": "56 ± 1.05"}
{"Compound": "Cc1cc(O)c(C=O)c2c1C(=O)Oc1c(CO)c(O)c3c(c1O2)C(O)OC3=O (stereo not shown)", "test system": "streptozotocin-induced diabetic male rats, serum", "setting": "5 mg/kg, 9 weeks", "endpoint": "serum insulin", "result": "5.98 ± 0.13 mIU/L"}
{"Compound": "COc1ccc2c(c1)c(CC(=O)OCC(=O)c1ccccc1)c(C)n2C(=O)c1ccc(Cl)cc1", "test system": "BALB/c mice, acetic acid writhing", "setting": "intraperitoneal, 10 mg/kg, 20 min count", "endpoint": "writhing count", "result": "15.2 ± 1.54"}
{"Compound": "CCOP(=O)(CC(=O)Nc1ccc(S(=O)(=O)N(CC(N)=O)c2ccc(N(CC(N)=O)S(=O)(=O)c3ccc(OC)cc3)c3ccccc23)cc1)OCC", "assay": "western blot, item: total Nrf2", "test system": "normal mice, hippocampus and cortex", "setting": "oral, 40 mg/kg once daily, 60 days", "endpoint": "protein level", "result": "increased"}
{"Compound": "COc1cc2nc(N3CCN(C(=O)C4CC5(CC5)CO4)CC3)nc(N)c2cc1OC (stereo not shown)", "test system": "male SHR rat", "setting": "oral, 3 mg/kg, 15 min", "how to read": "baseline: terazosin", "endpoint": "systolic blood pressure decrease", "result": "increased"}
{"Compound": "Cc1ccc(N(CCc2nnc(S)n2N)S(=O)(=O)c2ccccc2)cc1", "assay": "tail flick, radiant heat", "test system": "rat", "setting": "200 mg/kg", "endpoint": "analgesic protection", "result": "81%"}
{"Compound": "CC[C@H]1[C@@H](O)[C@@H]2[C@H](CC[C@]3(C)[C@@H]([C@H](C)CCOS(=O)(=O)[O-])CC[C@@H]23)[C@@]2(C)CC[C@@H](O)C[C@@H]12.[Na+]", "assay": "histology", "test system": "ob/ob NASH mouse model, liver", "setting": "oral, 3 mg/kg once daily, before treatment, baseline of 8 week study, scale 0 to 2", "how to read": "direction not given", "endpoint": "ballooning score", "result": "0.7 ± 0.1"}
{"Compound": "COc1ccc(-c2cc(COC3c4cc5c(cc4C(c4cc(OC)c(OC)c(OC)c4)C4C(=O)OCC34)OCO5)on2)cc1 (stereo not shown)", "assay": "tubulin polymerisation, inhibitor", "endpoint": "IC50", "result": "880 nM"}
{"Compound": "CCCCCCCCCCCCCCCC(=O)N[C@@H](CCC(=O)NCCCC[C@H](NC(=O)[C@H](CC(=O)O)NC(=O)[C@H](CO)NC(=O)[C@@H](NC(=O)[C@H](Cc1ccccc1)NC(=O)[C@@H](NC(=O)CNC(=O)[C@H](CCC(N)=O)NC(=O)[C@H](CO)NC(=O)[C@@H](N)Cc1c[nH]cn1)[C@@H](C)O)[C@@H](C)O)C(=O)N[C@@H](CO)C(=O)N[C@@H](CCC(=O)O)C(=O)N[C@@H](Cc1ccc(O)cc1)C(=O)N[C@@H](CC(C)C)C(=O)N[C@@H](CC(=O)O)C(=O)N[C@@H](CO)C(=O)N[C@@H](CCC(=O)O)C(=O)N[C@@H](CCCNC(=N)N)C(=O)N[C@@H](C)C(=O)N[C@@H](CCCNC(=N)N)C(=O)N[C@@H](CC(=O)O)C(=O)N[C@@H](Cc1ccccc1)C(=O)N[C@H](C(=O)N[C@@H](C)C(=O)N[C@@H](Cc1c[nH]c2ccccc12)C(=O)N[C@@H](CC(C)C)C(=O)N[C@@H](CCC(=O)O)C(=O)N[C@@H](C)C(=O)NCC(=O)NCC(=O)O)C(C)C)C(=O)O", "test system": "male cynomolgus monkey", "setting": "subcutaneous, 16 nmol/kg/day for 8 weeks, day 57", "how to read": "baseline: starting body weight", "endpoint": "body weight loss", "result": "7%"}
{"Compound": "CCCC[C@H](NC(=O)[C@@H](NC(=O)[C@H](CC(=O)O)NC(=O)[C@H](CCC(N)=O)NC(=O)[C@H](CC(C)C)NC(=O)[C@H](CC(C)C)NC(=O)[C@H](CCCN)NC(=O)[C@H](CCCNC(=N)N)NC(=O)[C@H](C)NC(=O)[C@H](CO)NC(=O)[C@H](CC(C)C)NC(=O)[C@H](CCC(N)=O)NC(=O)[C@H](CC)NC(=O)[C@H](CC(C)C)NC(=O)[C@@H](NC(=O)[C@H](CCCN)NC(=O)[C@H](CCCNC(=N)N)NC(=O)[C@H](Cc1ccc(O)cc1)NC(=O)[C@H](CO)NC(=O)[C@H](CCC(N)=O)NC(=O)[C@@H](NC(=O)[C@H](Cc1ccccc1)NC(=O)[C@@H](NC(=O)[C@H](C)NC(=O)[C@H](CC(=O)O)NC(=O)[C@H](C)NC(=O)[C@H](Cc1ccc(O)cc1)NC)[C@@H](C)CC)[C@@H](C)O)C(C)C)[C@@H](C)CC)C(=O)N[C@@H](CC(=O)O)C(=O)NCCCCNC(=N)N", "assay": "GH release, ELISA", "test system": "male Sprague-Dawley rat, anaesthetised, serum", "setting": "subcutaneous, 3 µg/kg, 30 min", "endpoint": "serum GH level", "result": "152 ± 21.8 ng/mL"}
{"Compound": "Cc1ncc([N+](=O)[O-])n1CCOCc1nnc(SCC(=O)c2ccc(F)cc2)o1", "setting": "50 µg/mL, 45 min", "endpoint": "DPPH scavenging", "result": "65.21 ± 0.26%"}
{"Compound": "CCCOC(=O)Cc1c(C)n(C(=O)c2ccc(Cl)cc2)c2ccc(OC)cc12", "test system": "BALB/c mice, acetic acid writhing", "setting": "intraperitoneal, 30 mg/kg, 20 min count", "endpoint": "writhing count", "result": "7.5 ± 2.04"}
{"Compound": "CCCCCCCCCCCCCCc1sc(NC(=O)CCN2CCC(O)CC2)nc1-c1ccccc1", "setting": "0.1 mM, 20 min", "endpoint": "DPPH radical scavenging", "result": "17.8%"}
{"Compound": "COc1ccc2c(c1)c(CC(=O)OCOC(C)=O)c(C)n2C(=O)c1ccc(Cl)cc1", "assay": "acetic acid writhing test", "test system": "BALB/c mouse", "setting": "intraperitoneal, 20 mg/kg", "how to read": "baseline: negative control", "endpoint": "analgesia", "result": "67.5%"}
{"Compound": "COc1c2c(cc3oc(COC4OC(CO)C(O)C(O)C4O)cc(=O)c13)OC(C(C)(C)O)C2 (stereo not shown)", "test system": "mouse, xylene ear edema", "setting": "oral, 2 mg/kg", "endpoint": "ear edema weight increase", "result": "5.45 ± 0.33 mg"}
{"Compound": "Cc1cc2c(cc1C1(c3ncc(C(=O)O)cn3)CC1)C(C)(C)CCC2(C)C", "assay": "RNA sequencing, item: Lrrc4c mRNA", "test system": "rat, brain", "setting": "dose not given, 24 h, single dose", "how to read": "baseline: vehicle", "endpoint": "log2 fold change", "result": 0.11}
{"Compound": "N#Cc1ccc(-c2cc(=O)c3ccc4[nH]c(C(F)(F)F)nc4c3o2)cc1", "assay": "ELISA", "test system": "5xFAD mice, brain", "setting": "dose not given, chronic treatment", "endpoint": "IL-6 level", "result": "decreased"}
{"Compound": "C[C@H](NC(=O)CNC(=O)[C@H](CCC(=O)O)NC(=O)[C@H](CCC(=O)O)NC(=O)[C@H](CC(=O)O)NC(=O)[C@@H]1CCCN1C(=O)[C@H](Cc1ccccc1)NC(=O)[C@H](CS)NC(=O)[C@H](Cc1ccc(O)cc1)NC(=O)CCCNC(=O)CNC(=O)CNC(=O)[C@@H](C)NC(=O)CN)C(=O)N[C@@H](CS)C(=O)N[C@@H](Cc1ccc(O)cc1)C(N)=O [technetium-99m labelled]", "assay": "SPECT", "test system": "BALB/c nude mouse, SKBR3 tumour", "setting": "intravenous, 37 MBq, 120 min", "endpoint": "tumour to non-tumour ratio", "result": 5.18}
{"Compound": "C=C1C(=O)OC2C1CCC(Cn1cc(-c3cc(C(F)(F)F)cc(C(F)(F)F)c3)nn1)=C1CCC(C)(O)C12 (stereo not shown)", "test system": "blast crisis CML mouse, bone marrow", "setting": "dose not given", "endpoint": "leukaemic stem cells", "result": "no effect"}
{"Compound": "CC(=O)N[C@H](C(=O)N[C@H](C(=O)N[C@@H](CCCNC(=N)N)C(=O)N1Cc2ccccc2C[C@H]1C(=O)N[C@@H](Cc1ccccc1)C(N)=O)C1CCCCC1)C(C)C", "assay": "inhibitor", "test system": "HLA-DR4 (DRB1*04:01) transgenic mice", "setting": "dose not given", "endpoint": "antigen-specific cytokine response", "result": "no inhibition"}
{"Compound": "COc1ccc2c(c1)c(CC(=O)OCC(=O)OC(C)(C)C)c(C)n2C(=O)c1ccc(Cl)cc1", "assay": "hot plate test", "test system": "BALB/c mice", "setting": "50 mg/kg, 0 min", "endpoint": "latency of nociceptive response", "result": "9.55 ± 0.48 s"}
{"Compound": "COc1c2c(cc3oc(C)cc(=O)c13)O[C@H](C(C)(C)O[C@@H]1O[C@H](CO)[C@@H](O)[C@H](O)[C@H]1O)C2", "test system": "mouse, xylene ear edema", "setting": "oral, 1 mg/kg", "endpoint": "ear edema weight increase", "result": "6.64 ± 0.18 mg"}
{"Compound": "CCCC[C@H](NC(=O)[C@@H](NC(=O)[C@H](CC(=O)O)NC(=O)[C@H](CCC(N)=O)NC(=O)[C@H](CC(C)C)NC(=O)[C@H](CC(C)C)NC(=O)[C@H](CCCN)NC(=O)[C@H](CCCNC(=N)N)NC(=O)[C@H](C)NC(=O)[C@H](CO)NC(=O)[C@H](CC(C)C)NC(=O)[C@H](CCC(N)=O)NC(=O)[C@H](CC)NC(=O)[C@H](CC(C)C)NC(=O)[C@@H](NC(=O)[C@H](CCCN)NC(=O)[C@H](CCCNC(=N)N)NC(=O)[C@H](Cc1ccc(O)cc1)NC(=O)[C@H](CO)NC(=O)[C@H](CCC(N)=O)NC(=O)[C@@H](NC(=O)[C@H](Cc1ccccc1)NC(=O)[C@@H](NC(=O)[C@H](C)NC(=O)[C@H](CC(=O)O)NC(=O)[C@H](C)NC(=O)[C@H](Cc1ccc(O)cc1)NC)[C@@H](C)CC)[C@@H](C)O)C(C)C)[C@@H](C)CC)C(=O)N[C@@H](CC(=O)O)C(=O)N[C@@H](CCCNC(=N)N)C(=O)NC", "assay": "GH release, ELISA", "test system": "male Sprague-Dawley rat, anaesthetised, serum", "setting": "subcutaneous, 3 µg/kg, 0 min", "endpoint": "serum GH level", "result": "21.3 ± 4.8 ng/mL"}
{"note": "For quick reference, copied from above:"}
{"Compound": "C[C@H](NC(=O)CNC(=O)[C@H](CCC(=O)O)NC(=O)[C@H](CCC(=O)O)NC(=O)[C@H](CC(=O)O)NC(=O)[C@@H]1CCCN1C(=O)[C@H](Cc1ccccc1)NC(=O)[C@H](CS)NC(=O)[C@H](Cc1ccc(O)cc1)NC(=O)CCCNC(=O)CNC(=O)CNC(=O)[C@@H](C)NC(=O)CN)C(=O)N[C@@H](CS)C(=O)N[C@@H](Cc1ccc(O)cc1)C(N)=O [technetium-99m labelled]", "assay": "SPECT", "test system": "BALB/c nude mouse, SKBR3 tumour", "setting": "intravenous, 37 MBq, 120 min", "endpoint": "tumour to non-tumour ratio", "result": 5.18}
{"Compound": "COc1c2c(cc3oc(COC4OC(CO)C(O)C(O)C4O)cc(=O)c13)OC(C(C)(C)O)C2 (stereo not shown)", "test system": "mouse, xylene ear edema", "setting": "oral, 2 mg/kg", "endpoint": "ear edema weight increase", "result": "5.45 ± 0.33 mg"}
